Measured values collected from several papers.
Numbered parts are unrelated; each lists some results of a single study.
Chain of UniProt Q13283 (whole entry, looked up): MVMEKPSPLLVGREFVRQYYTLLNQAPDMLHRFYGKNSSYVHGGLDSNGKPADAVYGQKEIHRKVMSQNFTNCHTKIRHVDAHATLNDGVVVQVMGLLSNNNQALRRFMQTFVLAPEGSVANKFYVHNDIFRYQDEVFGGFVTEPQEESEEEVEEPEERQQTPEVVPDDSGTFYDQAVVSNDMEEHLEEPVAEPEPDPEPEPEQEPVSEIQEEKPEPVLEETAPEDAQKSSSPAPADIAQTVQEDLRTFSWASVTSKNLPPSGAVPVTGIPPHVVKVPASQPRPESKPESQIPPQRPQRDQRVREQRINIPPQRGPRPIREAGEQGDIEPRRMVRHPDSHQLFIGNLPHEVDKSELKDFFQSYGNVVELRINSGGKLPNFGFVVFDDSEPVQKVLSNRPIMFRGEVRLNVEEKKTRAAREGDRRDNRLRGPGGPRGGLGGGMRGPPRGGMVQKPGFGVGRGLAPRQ

Sample 1
Target: Sal-like protein 4, full length isoform B (SALL4, Homo sapiens, UniProt Q9UJQ4-2, residues 1-616)
Method: universal PBM
Form: double-stranded DNA, one strand shown
Sample: in vitro
Tested at: not given
Notes: 8-mer, flanks averaged, mean of replicates
Reading: higher = stronger binding
Endpoint: E-score
AAGGGCCG: -0.279
CAACTTCG: -0.0783
GGCGGCCA: -0.262
ACCCACGG: -0.334

Sample 2
Target: Interferon regulatory factor 7, full length, phosphomimetic (IRF7, Homo sapiens, UniProt Q92985, residues 1-503, S471D/S472D/S475D/S476D/S477D/S483D/S484D/S487D)
Chain of UniProt Q92985 (whole entry, unmodified, looked up): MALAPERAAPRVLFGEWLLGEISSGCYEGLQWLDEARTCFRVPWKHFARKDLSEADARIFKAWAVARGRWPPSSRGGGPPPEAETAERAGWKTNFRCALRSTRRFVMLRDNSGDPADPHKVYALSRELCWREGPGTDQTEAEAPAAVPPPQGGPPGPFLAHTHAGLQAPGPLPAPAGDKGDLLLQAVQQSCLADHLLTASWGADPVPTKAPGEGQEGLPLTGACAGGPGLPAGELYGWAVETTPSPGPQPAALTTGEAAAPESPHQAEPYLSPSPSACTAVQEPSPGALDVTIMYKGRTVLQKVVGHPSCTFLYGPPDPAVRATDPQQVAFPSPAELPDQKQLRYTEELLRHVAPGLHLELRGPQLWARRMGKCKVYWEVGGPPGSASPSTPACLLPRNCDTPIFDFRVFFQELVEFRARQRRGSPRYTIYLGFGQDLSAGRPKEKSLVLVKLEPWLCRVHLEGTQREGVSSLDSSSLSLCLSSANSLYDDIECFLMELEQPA
Method: protein-binding microarray
Form: double-stranded DNA, one strand shown
Sample: in vitro
Tested at: 2200 nM top
Notes: 60-bp whole probe
Together with: salmon DNA 0.4 mg/ml
Baseline: random background probes
Reading: higher = stronger binding
Endpoint: fitted relative affinity
GCCTAGCACCCCACTTTCAGTTCTCCCTTGTGCTAGGTCTTGATTCGCTTGACGCTGCTG: 9.74 z-score
GCCTAGCACGTCCACTCCAGACCGTTTGCGTGCTAGGTCTTGATTCGCTTGACGCTGCTG: 1.06 z-score
GCCTAGCACTATCCTATCAGTTTAATATCGTGCTAGGTCTTGATTCGCTTGACGCTGCTG: 1.21 z-score

Mixed results
PhoQ, residues 284 288 289 292 302 303 SVTLVV  fold induction (PhoP, residues 12 14 15 18 19 NFCKL (Escherichia coli, UniProt P23836); Sort-seq, measured: YFP reporter; E. coli; PhoQ-PhoP variant library, together with: 10 µM Mg2+; baseline: high Mg2+ state, higher = stronger signaling): 7.17
GGGAGUUCUACAGUCCGACGAUCCAAGUCCUGUGCUACACAUCGUAUGUACCGAAUCGGGUUUUUGGGAGGGUUUGGGAAAGUAUUAUGUUACGCCGUUCGGAUCUGCACUUCUGGAAUUCUCGGGUGUCAAGG  log2 enrichment (Ras GTPase-activating protein-binding protein 1, full length (G3BP1, Homo sapiens, UniProt Q13283); RNA Bind-n-Seq; RNA, in vitro; 200 nM, whole 134-nt RNA, ends assumed, together with: 150 mM KCl; baseline: input library, higher = stronger binding): 0.336

A few entries again (sample 2):
GCCTAGCACGTCCACTCCAGACCGTTTGCGTGCTAGGTCTTGATTCGCTTGACGCTGCTG: 1.06 z-score
